Results collected from several papers.
Parts stem from different laboratories: compare values within a part only.
Sequence of UniProt Q12852 (whole entry, looked up): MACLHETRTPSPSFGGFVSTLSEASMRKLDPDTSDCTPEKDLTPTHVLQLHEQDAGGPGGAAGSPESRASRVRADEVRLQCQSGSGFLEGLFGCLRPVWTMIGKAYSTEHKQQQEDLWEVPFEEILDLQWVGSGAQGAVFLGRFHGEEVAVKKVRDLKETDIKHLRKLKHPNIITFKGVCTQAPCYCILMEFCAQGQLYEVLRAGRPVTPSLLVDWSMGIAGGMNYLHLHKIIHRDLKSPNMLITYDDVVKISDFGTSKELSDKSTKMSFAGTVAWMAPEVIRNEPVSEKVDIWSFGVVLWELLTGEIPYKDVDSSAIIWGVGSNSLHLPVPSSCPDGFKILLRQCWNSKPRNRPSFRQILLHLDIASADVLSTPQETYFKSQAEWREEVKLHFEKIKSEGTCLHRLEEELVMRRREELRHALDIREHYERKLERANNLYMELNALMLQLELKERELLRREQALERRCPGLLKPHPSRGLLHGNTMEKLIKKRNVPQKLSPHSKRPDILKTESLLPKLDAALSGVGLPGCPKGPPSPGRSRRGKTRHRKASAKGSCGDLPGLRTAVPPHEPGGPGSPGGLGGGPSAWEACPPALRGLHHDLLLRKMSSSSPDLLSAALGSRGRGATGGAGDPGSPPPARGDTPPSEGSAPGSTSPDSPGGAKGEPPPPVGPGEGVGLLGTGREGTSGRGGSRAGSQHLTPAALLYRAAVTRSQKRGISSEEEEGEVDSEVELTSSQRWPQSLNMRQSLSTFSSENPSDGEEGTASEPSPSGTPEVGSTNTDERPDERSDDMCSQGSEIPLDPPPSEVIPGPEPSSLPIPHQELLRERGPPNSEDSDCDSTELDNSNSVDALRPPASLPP
Sequence of UniProt P52564 (whole entry, looked up): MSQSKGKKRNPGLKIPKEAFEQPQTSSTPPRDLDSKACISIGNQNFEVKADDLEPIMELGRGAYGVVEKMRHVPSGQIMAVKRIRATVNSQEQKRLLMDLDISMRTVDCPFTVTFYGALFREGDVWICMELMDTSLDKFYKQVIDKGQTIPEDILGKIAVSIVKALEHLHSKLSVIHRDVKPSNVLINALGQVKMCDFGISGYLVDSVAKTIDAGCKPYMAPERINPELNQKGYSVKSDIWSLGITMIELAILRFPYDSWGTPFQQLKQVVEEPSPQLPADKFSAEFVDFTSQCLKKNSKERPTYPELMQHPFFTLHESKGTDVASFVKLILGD
Sequence of UniProt Q05655 (whole entry, looked up): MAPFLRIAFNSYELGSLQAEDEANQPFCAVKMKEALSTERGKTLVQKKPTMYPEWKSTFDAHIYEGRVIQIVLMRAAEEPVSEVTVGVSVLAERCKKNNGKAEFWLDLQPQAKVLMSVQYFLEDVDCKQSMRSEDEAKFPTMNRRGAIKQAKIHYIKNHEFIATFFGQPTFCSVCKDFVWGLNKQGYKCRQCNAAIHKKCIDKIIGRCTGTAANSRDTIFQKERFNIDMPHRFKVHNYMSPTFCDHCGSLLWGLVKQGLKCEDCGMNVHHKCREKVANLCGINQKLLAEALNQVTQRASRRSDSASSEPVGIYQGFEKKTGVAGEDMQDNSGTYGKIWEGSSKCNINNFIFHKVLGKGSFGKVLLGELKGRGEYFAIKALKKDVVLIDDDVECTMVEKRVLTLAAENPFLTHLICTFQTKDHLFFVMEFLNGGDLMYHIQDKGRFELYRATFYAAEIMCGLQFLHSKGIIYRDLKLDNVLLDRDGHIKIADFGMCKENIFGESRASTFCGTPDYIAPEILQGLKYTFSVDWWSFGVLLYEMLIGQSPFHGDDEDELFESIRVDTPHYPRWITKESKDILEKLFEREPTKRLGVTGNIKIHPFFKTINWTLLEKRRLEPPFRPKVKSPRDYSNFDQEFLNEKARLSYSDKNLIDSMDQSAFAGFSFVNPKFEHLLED
Sequence of UniProt P50750 (whole entry, looked up): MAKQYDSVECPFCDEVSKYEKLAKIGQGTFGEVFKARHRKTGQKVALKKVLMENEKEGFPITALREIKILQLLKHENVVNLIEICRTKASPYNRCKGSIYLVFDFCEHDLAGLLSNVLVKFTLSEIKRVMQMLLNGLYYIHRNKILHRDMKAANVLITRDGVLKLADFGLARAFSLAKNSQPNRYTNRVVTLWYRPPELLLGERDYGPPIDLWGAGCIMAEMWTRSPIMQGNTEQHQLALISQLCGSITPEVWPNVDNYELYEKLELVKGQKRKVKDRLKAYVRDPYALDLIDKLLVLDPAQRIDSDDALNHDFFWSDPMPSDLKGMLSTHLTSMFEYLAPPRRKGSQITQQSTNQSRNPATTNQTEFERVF
Sequence of UniProt P54756 (whole entry, looked up): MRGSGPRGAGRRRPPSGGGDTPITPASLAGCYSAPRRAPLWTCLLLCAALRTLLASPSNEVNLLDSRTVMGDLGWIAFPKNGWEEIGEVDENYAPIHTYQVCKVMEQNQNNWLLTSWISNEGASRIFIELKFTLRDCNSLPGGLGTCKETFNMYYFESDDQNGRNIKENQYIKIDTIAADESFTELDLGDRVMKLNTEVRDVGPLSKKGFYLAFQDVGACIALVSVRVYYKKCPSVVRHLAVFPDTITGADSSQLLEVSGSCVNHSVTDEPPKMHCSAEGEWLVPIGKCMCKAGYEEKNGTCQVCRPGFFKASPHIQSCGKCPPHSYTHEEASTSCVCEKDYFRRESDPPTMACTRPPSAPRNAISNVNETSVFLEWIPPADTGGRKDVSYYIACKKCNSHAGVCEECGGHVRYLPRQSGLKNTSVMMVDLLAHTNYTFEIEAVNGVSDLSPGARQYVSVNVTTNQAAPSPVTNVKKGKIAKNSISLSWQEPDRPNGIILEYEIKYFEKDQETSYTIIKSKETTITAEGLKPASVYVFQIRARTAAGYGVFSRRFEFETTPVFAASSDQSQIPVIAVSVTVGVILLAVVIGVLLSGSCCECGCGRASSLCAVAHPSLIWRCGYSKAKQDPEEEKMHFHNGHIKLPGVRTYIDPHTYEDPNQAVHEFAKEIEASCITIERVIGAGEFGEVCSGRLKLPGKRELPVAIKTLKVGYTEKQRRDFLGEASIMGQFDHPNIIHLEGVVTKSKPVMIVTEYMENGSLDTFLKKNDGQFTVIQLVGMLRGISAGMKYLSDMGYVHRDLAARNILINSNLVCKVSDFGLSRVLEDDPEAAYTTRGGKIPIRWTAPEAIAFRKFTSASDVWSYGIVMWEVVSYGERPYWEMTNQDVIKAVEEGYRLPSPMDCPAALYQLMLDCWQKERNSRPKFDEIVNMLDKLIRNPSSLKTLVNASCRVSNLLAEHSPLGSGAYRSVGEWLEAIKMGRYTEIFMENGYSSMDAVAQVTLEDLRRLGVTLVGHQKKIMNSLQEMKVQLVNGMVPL
Sequence of UniProt P48729 (whole entry, looked up): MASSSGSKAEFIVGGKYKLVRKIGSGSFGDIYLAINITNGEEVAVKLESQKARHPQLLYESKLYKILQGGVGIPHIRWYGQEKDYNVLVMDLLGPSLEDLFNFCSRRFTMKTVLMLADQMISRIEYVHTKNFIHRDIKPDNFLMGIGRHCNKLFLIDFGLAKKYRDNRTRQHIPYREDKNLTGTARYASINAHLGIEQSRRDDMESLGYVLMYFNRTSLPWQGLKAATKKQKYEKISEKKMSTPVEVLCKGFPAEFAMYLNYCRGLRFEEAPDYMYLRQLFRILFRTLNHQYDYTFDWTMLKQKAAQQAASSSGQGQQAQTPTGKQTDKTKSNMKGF
Sequence of UniProt O15264 (whole entry, looked up): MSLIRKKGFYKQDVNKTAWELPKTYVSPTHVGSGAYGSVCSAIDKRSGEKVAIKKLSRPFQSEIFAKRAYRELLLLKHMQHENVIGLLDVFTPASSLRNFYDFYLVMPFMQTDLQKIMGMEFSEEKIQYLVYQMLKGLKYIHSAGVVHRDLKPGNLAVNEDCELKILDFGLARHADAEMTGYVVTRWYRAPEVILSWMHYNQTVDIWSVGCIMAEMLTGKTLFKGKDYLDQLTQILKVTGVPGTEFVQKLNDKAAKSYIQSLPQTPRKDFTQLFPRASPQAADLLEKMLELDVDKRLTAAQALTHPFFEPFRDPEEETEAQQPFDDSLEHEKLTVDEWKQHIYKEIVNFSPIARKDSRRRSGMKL
Sequence of UniProt Q15208 (whole entry, looked up): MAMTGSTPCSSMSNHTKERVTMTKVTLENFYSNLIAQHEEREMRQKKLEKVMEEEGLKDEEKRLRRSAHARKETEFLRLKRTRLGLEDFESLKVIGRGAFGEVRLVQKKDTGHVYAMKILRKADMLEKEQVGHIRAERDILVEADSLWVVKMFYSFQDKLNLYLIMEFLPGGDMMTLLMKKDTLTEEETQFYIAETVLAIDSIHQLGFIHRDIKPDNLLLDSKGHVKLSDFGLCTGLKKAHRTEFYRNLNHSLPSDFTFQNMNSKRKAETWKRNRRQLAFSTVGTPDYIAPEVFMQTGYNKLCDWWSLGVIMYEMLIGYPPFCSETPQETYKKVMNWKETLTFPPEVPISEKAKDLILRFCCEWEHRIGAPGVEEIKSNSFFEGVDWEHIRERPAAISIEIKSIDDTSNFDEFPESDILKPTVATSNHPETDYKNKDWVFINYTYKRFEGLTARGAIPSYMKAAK

Sample 1
SMILES: C[C@@H](c1cccc(C#N)c1)n1cc(Cl)cc(C(N)=O)c1=N
Read-out: cell-free assay
Method: competition with immobilised ligand
Tested at: 1 µM
Measurement: remaining binding
Phosphatidylinositol 5-phosphate 4-kinase type-2 gamma (PIP4K2C, Homo sapiens, UniProt Q8TBX8): 85%
Receptor-type tyrosine-protein kinase FLT3 (FLT3, Homo sapiens, UniProt P36888, D835V/ITD): 96%
Ribosomal protein S6 kinase alpha-3, C-terminal kinase domain (RPS6KA3, Homo sapiens, UniProt P51812): 86%
Dual serine/threonine and tyrosine protein kinase (DSTYK, Homo sapiens, UniProt Q6XUX3): 87%
Mitogen-activated protein kinase kinase kinase 19 (MAP3K19, Homo sapiens, UniProt Q56UN5): 94%
ALK tyrosine kinase receptor (ALK, Homo sapiens, UniProt Q9UM73, L1196M): 82%
Mitogen-activated protein kinase kinase kinase 12 (MAP3K12, Homo sapiens, UniProt Q12852): 100%
Tyrosine-protein kinase ABL1, non-phosphorylated (ABL1, Homo sapiens, UniProt P00519, H396P): 54%
Tyrosine-protein kinase Mer (MERTK, Homo sapiens, UniProt Q12866): 82%
Tyrosine-protein kinase JAK3, JH1 (JAK3, Homo sapiens, UniProt P52333): 100%
Misshapen-like kinase 1 (MINK1, Homo sapiens, UniProt Q8N4C8): 96%
Serine/threonine-protein kinase PAK 5 (PAK5, Homo sapiens, UniProt Q9P286): 97%
Mitogen-activated protein kinase kinase kinase kinase 1 (MAP4K1, Homo sapiens, UniProt Q92918): 96%
Phosphatidylinositol 4,5-bisphosphate 3-kinase catalytic subunit alpha isoform (PIK3CA, Homo sapiens, UniProt P42336, H1047Y): 100%
Serine/threonine-protein kinase haspin (HASPIN, Homo sapiens, UniProt Q8TF76): 100%
Focal adhesion kinase 1 (PTK2, Homo sapiens, UniProt Q05397): 100%

Sample 2
Target: Calcium/calmodulin-dependent protein kinase type II subunit alpha (CAMK2A, Homo sapiens, UniProt Q9UQM7)
Sequence of UniProt Q9UQM7 (whole entry, looked up): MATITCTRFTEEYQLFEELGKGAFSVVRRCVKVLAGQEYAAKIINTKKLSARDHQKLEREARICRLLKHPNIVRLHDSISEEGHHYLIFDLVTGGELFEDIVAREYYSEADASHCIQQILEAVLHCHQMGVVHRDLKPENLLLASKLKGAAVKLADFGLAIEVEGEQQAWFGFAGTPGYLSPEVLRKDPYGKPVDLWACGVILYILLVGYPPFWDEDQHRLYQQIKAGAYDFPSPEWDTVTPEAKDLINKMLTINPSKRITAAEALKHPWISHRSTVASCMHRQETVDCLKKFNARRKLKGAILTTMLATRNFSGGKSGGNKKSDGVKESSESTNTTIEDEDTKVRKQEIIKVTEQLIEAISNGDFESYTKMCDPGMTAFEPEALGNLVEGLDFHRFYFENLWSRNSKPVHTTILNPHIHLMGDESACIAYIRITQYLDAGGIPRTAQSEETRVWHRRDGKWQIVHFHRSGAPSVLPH
Read-out: enzyme activity
Mode: inhibitor
Tested at: 10 µM
Measurement: inhibition
CC(C)=CC[C@H](OC(=O)C=C(C)C)C1=CC(=O)c2c(O)ccc(O)c2C1=O: 4%
O=C(O)CCNC(=O)c1ccc(/N=N/c2ccc(O)c(C(=O)O)c2)cc1: -8%
CC(C)(O)[C@@H]1Cc2cc3ccc(=O)oc3cc2O1: -19%
O=c1cc(-c2ccccc2)oc2cc(O)cc(O[C@@H]3O[C@H](CO)[C@@H](O)[C@H](O)[C@H]3O)c12: 13%
CCOc1ccc(Nc2ccc(/C(=C3C=C/C(=[N+](/CC)Cc4cccc(S(=O)(=O)[O-])c4)C=C/3C)c3ccc(N(CC)Cc4cccc(S(=O)(=O)O)c4)cc3C)cc2)cc1: 13%
O=c1ccc2ccc(O[C@@H]3O[C@H](CO)[C@@H](O)[C@H](O)[C@H]3O)c(O)c2o1: 34%
COc1cc(O)cc(OC)c1: -42%
CC(=O)OCC(=O)[C@@]1(O)CC[C@H]2[C@@H]3CCC4=CC(=O)CC[C@]4(C)[C@H]3[C@@H](O)C[C@@]21C: -3%
O=c1cc(-c2ccccc2)oc2ccc(O)cc12: -6%
C/C=C(/C)C(=O)O[C@H]1c2cc(OC)c(OC)c(OC)c2-c2c(cc3c(c2OC)OCO3)C[C@H](C)[C@]1(C)O: 18%
COc1ccc2c(c1OC)CN(C)c1c-2ccc2cc3c(cc12)OCO3: -2%
CC1(C)CCC(C)(C)c2cc(NC(=O)c3ccc(C(=O)O)cc3)ccc21: -2%
CC(C)(O)[C@H]1Cc2cc3cc(-c4cc(O)cc(O)c4)oc3cc2O1: -11%
C[C@]12CC[C@@H]3c4ccc(O)cc4CC[C@H]3[C@@H]1CC[C@H]2O: 21%
CC1(C)C[C@@H](O)[C@]2(C)CC[C@]3(C)C(=CC[C@@H]4[C@@]5(C)CC[C@H](O)[C@](C)(CO)[C@@H]5CC[C@]43C)[C@@H]2C1: 3%
OC1OC[C@@H](O[C@@H]2OC[C@@H](O[C@@H]3OC[C@@H](O)[C@H](O)[C@H]3O)[C@H](O)[C@H]2O)[C@H](O)[C@H]1O (stereo partly shown): 3%

Sample 3
SMILES: CCCC(=O)Oc1ccc2[nH]c(C(=O)c3cc4ccccc4[nH]3)cc2c1
Read-out: enzyme activity
Mode: inhibitor
Tested at: 0.5 µM
Reference: control
Measurement: remaining activity
Interleukin-1 receptor-associated kinase 4 (IRAK4, Homo sapiens, UniProt Q9NWZ3): 82.7%
Casein kinase II subunit alpha (CSNK2A1, Homo sapiens, UniProt P68400): 99.8%
Serine/threonine-protein kinase Chk1 (CHEK1, Homo sapiens, UniProt O14757): 89.7%
Casein kinase I isoform alpha (CSNK1A1, Homo sapiens, UniProt P48729): 94%
Leucine-rich repeat serine/threonine-protein kinase 2 (LRRK2, Homo sapiens, UniProt Q5S007): 101%
Mast/stem cell growth factor receptor Kit (KIT, Homo sapiens, UniProt P10721): 82.4%
Mitogen-activated protein kinase kinase kinase 10 (MAP3K10, Homo sapiens, UniProt Q02779): 87.7%
Tyrosine-protein kinase BTK (BTK, Homo sapiens, UniProt Q06187): 88.2%
Mitogen-activated protein kinase 13 (MAPK13, Homo sapiens, UniProt O15264): 103%
Serine/threonine-protein kinase WNK2 (WNK2, Homo sapiens, UniProt Q9Y3S1): 113%
Tyrosine-protein kinase Lyn (LYN, Homo sapiens, UniProt P07948): 98.7%
Serine/threonine-protein kinase PLK2 (PLK2, Homo sapiens, UniProt Q9NYY3): 101%
Mitogen-activated protein kinase kinase kinase kinase 2 (MAP4K2, Homo sapiens, UniProt Q12851): 95.3%
cGMP-dependent protein kinase 1 (PRKG1, Homo sapiens, UniProt Q13976): 95.1%
Serine/threonine-protein kinase 38 (STK38, Homo sapiens, UniProt Q15208): 96.9%
Protein kinase C delta type (PRKCD, Homo sapiens, UniProt Q05655): 88.8%
Mitogen-activated protein kinase 12 (MAPK12, Homo sapiens, UniProt P53778): 93.7%
RAC-gamma serine/threonine-protein kinase (AKT3, Homo sapiens, UniProt Q9Y243): 101%
Serine/threonine-protein kinase Nek4 (NEK4, Homo sapiens, UniProt P51957): 96.3%
Ephrin type-A receptor 5 (EPHA5, Homo sapiens, UniProt P54756): 97.7%
MAP kinase-interacting serine/threonine-protein kinase 2 (MKNK2, Homo sapiens, UniProt Q9HBH9): 105%
Dual specificity mitogen-activated protein kinase kinase 6 (MAP2K6, Homo sapiens, UniProt P52564): 97.3%
Cyclin-dependent kinase 9, with cyclin T1 (CDK9, Homo sapiens, UniProt P50750): 105%
Protein kinase C iota type (PRKCI, Homo sapiens, UniProt P41743): 99.2%

Sample 4
Target: Bromodomain-containing protein 4, BD1 (BRD4, Homo sapiens, UniProt O60885)
Read-out: acetyl-histone H4 peptide binding
Method: AlphaScreen displacement
Tested at: 50 µM
Measurement: inhibition
O=c1cc(N2CCOCC2)oc2c(-c3ccccc3)cccc12: 17.7%
COc1ccc(-c2nnc3ccc(SC(C(C)=O)C(C)=O)nn23)cc1OC: 33.7%
Cc1cc(C=C2C(=O)C=CC2=O)cc(C)c1O: 54.2%
Cc1cc(NC(=O)c2sc(Nc3ccccc3)nc2N)no1: 28.3%
CC(Nc1nc(-c2ccc(F)c(Cl)c2)cnc1N)c1ccccc1 (stereo not shown): 42.4%
Nc1nc(SCc2ccc(Cl)cc2Cl)c2nc[nH]c2n1: 32.6%
COc1ccc(OC)c(NC(=O)c2cc(-c3cc(Cl)ccc3O)n[nH]2)c1: 31.5%
NC1=N/C(=C2/CCNC(=O)c3[nH]c(Br)cc32)C(=O)N1: 7.5%
c1ccc(-c2cnc3c(N4CCOCC4)nccn23)cc1: 16.8%
Nc1nc(Nc2ccc(S(N)(=O)=O)cc2)nn1C(=O)c1c(F)cccc1F: 9.5%
CN1CCN(Cc2c(-c3ccc(F)cc3)[nH]c3ncccc23)CC1: 35%
N#CC(=C1CCCN1)c1nc2ccccc2s1: 6.2%
COc1cccc(-c2nc(NCCCN(C)C)c3ccccc3n2)c1O: 49.5%
Nc1nc(Nc2ccc(F)cc2)sc1C(=O)c1ccc(Cl)cc1: 65.5%
COc1ccc(C(=O)c2sc(Nc3cccc(C(F)(F)F)c3)nc2N)cc1: 10.4%
O=C(CSc1ccc2nnc(-c3cccc(F)c3)n2n1)NCc1ccc(F)cc1: 19.6%
c1coc(-c2[nH]c3ncccc3c2CN2CCOCC2)c1: 7.55%
COc1cc2ncn(-c3cc(OCc4ccccc4S(C)(=O)=O)c(C#N)s3)c2cc1OC: -5.5%
O=C1NC(=O)C(=Cc2cccc(OCc3ccc(Cl)cc3Cl)c2)S1: -2.05%
COc1ccc(-c2nnc3ccc(SCC(=O)N4CCCCCC4)nn23)cc1OC: 13%

Excerpt of the above (sample 3):
Leucine-rich repeat serine/threonine-protein kinase 2 (LRRK2, Homo sapiens, UniProt Q5S007): 101%
Mast/stem cell growth factor receptor Kit (KIT, Homo sapiens, UniProt P10721): 82.4%
Mitogen-activated protein kinase kinase kinase 10 (MAP3K10, Homo sapiens, UniProt Q02779): 87.7%
Tyrosine-protein kinase BTK (BTK, Homo sapiens, UniProt Q06187): 88.2%
Mitogen-activated protein kinase 13 (MAPK13, Homo sapiens, UniProt O15264): 103%
Serine/threonine-protein kinase WNK2 (WNK2, Homo sapiens, UniProt Q9Y3S1): 113%
